Experimental data from different studies.
Every numbered part comes from another study and shows a few of its results, in no order.

Series 1
Target: Sal-like protein 4, full length isoform A (SALL4, Homo sapiens, UniProt Q9UJQ4, residues 1-1053)
Chain of UniProt Q9UJQ4 (whole entry, looked up): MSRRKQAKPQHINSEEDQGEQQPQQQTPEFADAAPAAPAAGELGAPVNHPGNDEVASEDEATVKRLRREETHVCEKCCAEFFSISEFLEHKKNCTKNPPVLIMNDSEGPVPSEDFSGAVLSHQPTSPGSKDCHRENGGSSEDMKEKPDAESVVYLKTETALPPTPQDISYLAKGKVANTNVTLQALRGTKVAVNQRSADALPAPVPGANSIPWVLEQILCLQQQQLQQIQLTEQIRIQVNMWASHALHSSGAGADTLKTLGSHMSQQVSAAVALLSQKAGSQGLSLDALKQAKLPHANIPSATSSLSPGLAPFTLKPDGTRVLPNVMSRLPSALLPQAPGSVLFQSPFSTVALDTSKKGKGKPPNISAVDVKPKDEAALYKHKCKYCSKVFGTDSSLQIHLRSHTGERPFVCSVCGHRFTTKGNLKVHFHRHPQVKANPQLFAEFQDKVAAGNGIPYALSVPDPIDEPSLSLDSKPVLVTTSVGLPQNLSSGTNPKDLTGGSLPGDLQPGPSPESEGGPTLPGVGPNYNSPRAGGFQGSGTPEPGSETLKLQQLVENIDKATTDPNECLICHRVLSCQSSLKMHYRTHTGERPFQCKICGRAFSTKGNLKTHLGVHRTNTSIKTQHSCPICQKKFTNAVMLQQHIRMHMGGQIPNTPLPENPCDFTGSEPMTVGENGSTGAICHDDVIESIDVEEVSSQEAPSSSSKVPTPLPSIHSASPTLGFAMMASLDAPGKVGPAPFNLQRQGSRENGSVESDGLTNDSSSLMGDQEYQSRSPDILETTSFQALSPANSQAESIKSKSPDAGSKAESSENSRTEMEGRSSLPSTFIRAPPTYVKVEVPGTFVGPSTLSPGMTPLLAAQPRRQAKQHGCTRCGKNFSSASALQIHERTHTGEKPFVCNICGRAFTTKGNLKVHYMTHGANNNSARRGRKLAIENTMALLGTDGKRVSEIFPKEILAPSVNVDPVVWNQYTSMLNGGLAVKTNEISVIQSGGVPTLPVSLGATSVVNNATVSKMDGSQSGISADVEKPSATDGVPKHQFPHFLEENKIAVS
Technique: universal PBM
Form: double-stranded DNA, one strand shown
Medium: in vitro
Tested at: 600 nM
Notes: 8-mer, flanks averaged, mean of replicates
Reading: higher = stronger binding
Quantity: E-score
GCTGGGCC: -0.426
ATTGAACG: 0.226
ATGGAATA: 0.286
CAAACACA: 0.142
TAAAGCGA: 0.114
CGGCTGGC: -0.38
ACGAATAG: 0.0587
CAATGACC: -0.116
ACAGTCAA: 0.0331
CAAGGTAA: 0.113
CATTCGGC: -0.159
ACTAGATG: 0.074
ATCCTAAC: 0.0853
GGGTGCTA: -0.136
GCTTATAC: 0.173
AAAACTTT: 0.184
AAGTCGAA: -0.00886
AGCATCCG: -0.247
GCCTGCCA: -0.233
ATGGGTAC: 0.0867
AGGAAGAA: 0.0374
ATAGCAAT: 0.273

Series 2
Target: RING finger protein unkempt homolog, zinc fingers 1-6, SBP tag (UNK, Homo sapiens, UniProt Q9C0B0, residues 30-357)
Chain of UniProt Q9C0B0 (30-357, looked up): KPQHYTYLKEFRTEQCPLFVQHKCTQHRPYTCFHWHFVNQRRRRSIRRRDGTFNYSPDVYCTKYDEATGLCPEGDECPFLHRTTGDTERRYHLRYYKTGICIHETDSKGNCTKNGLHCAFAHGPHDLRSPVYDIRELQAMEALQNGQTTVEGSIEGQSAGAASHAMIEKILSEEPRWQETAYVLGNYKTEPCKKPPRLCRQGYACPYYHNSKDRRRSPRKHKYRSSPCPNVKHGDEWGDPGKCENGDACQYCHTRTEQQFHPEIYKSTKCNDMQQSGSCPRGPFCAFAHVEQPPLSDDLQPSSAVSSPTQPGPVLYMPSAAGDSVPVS
Technique: RNA Bind-n-Seq
Form: RNA
Medium: in vitro
Tested at: 100 nM
Notes: RNA with constant flanks, vertebrate orthologous sites, ends assumed
Relative to: input RNA pool
Reading: higher = stronger binding
Quantity: bound/input enrichment
Constant ends, left off below: GGGAGUUCUACAGUCCGACGAUC … CAACAGAGGAUUGAGCAUCA
AAGACUUUGUGUGCCAGAUUACCCCAAAAAACAUAAAGCUACUUUUUUUACUUGCAUAUUUUUCAAAGUACCUGAAAAAUGGUUUUUCUCCUUUCUAAUGGUCAAAAGAAGGUACAUUUC: 0.4 ratio
UAUUUUCUUAUUUUAGGUAUCAUUGCCCAAUGCCCAAGAUCUUUUAUGUUCAGCUGACCGUAGGGAAUAAUGAAUUUUUUGGGGAAGGGAAGACUCGACAAGCUGCUAGACACAAUGCUG: 1.24 ratio
GGUUUUUAAAAAUUUAUUGAGCAUAUAGCUUUGUGCUAAAGAUUGUGUUAGAUUUAAAAAUCCACAGAUUGGUUCUUCGUUGUUUUCAUUUUUGAAAAUAAAUAAAACUUUGAAUCUCAU: 0.181 ratio
ACAGUCCUCUACUUAAACUGGUAUUUUCAAACAAUAGGAAGCUAUUUUUUUUUUUUACAGUUUAGUAUCUUGUUUCUACAUGGAAGACUAAACAUGCUUAUAGCUAAAUGUGGUCUUUGC: 0.417 ratio
UGUGCUUAUGCUCUUCUGAGGAAGAGAUGAAUUGGGGAGAGCUGUCCCCUUUUUAUAGAUUAGUUUGUUUCUAAAUUAUGACCAAAAAAUAUUUUGCUAUUUCUUUCUUUAUAUAUGGAC: 0.731 ratio
UUGGGACCAGCUCUCCAAAUAGGAAUAAUAGUAAAAAAAAUAAGCAAAAUGAUAUUUGUAUAGAAAAAACAGAAGUUAAAUCAUGUAAAGUAAAUGCUGCCAACGUUCCGGGCCCUAAAG: 4.05 ratio
GAACCCCAGUUUGUAUGUACAUUCACAUUCCUGUCUGUUUUGUUAGGAAAAAAAGACAUUUUAGCCUUUUUUAAGGUUAUUGAUUUAAUUUUAUGUUACUGGAUUGCAUGAUGUUGCCCU: 0.275 ratio
CUUUUUAUUGAUCAGGUCUAUAAAUGUGUACUAAAAAUCAGGGUUUAUUCAUAAACAGAUUAGUAAAUUUUUUUUAAAUGUUUUUUCUCCAUUGUUGUAGUGGUAUGCCUUCAGUAAACU: 1.11 ratio
CUGUUGUGUGAAACAUGUCUACCCAGAAAAGUAAUAUUCUAUAAAUACUAUUAAAAAACUUAGCUAUAUUAUUUUUAAGCAUUAAAUUAUACGUCAAGGAGUUAAAGUGAAUUUCAGAGU: 0.663 ratio
AGCAAACCAAGGAUUCAGGACUGGUUUUACAAAUGUGCCAAGUAGAUAUGGAACUAACAAUAGAAUUGGACAACCAAGACCAUGAUGUACUGUAAUUUAAUUUAUUUUUAUGAGGAAUAU: 0.595 ratio
UUGGGACCAACUCUCCAAAUAGGAAUAGUAGUAAAAAAACCAAGCAAAAUGAUACUUGUAUUGAAAAAACAGAUGUUAAAUCAUGUAAAGUAAAUGCUGCCAAUGUUCUAGGCCCUAAAG: 1 ratio

Series 3
Target: Histone acetyltransferase KAT6A, winged helix 1, GST fusion (KAT6A, Homo sapiens, UniProt Q92794, residues 1-85)
Technique: protein binding microarray
Form: double-stranded DNA, one strand shown
Medium: in vitro
Tested at: not given
Notes: 8-mer, flanks averaged, mean of 2 arrays, mostly near background
Relative to: not given
Reading: higher = stronger binding
Quantity: E-score
Target sequence (chain): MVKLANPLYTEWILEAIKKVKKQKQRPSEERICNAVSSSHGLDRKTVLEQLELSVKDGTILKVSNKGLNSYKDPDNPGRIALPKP
CTGCACTA: 0.00151
ACGCGGCT: 0.382
ACAAATTA: 0.0473
GCTGAACC: 0.00899
AACTAAAG: -0.122
AACGTTGG: -0.0215
CAGGCCTA: -0.162
GTATTAAA: 0.038
AAAACAAC: -0.168
AAGACGGC: 0.289
CGGGACAA: 0.263
AGTTCCAA: -0.277
ACCATAAA: -0.0529
AATGTTAA: -0.193
CTGCGATA: -0.0756
TCGAGCCA: -0.166

Series 4
Target: RNA binding protein fox-1 homolog 2, RRM domain, GST-SBP tag (RBFOX2, Homo sapiens, UniProt O43251-10, residues 100-194)
Technique: RNA Bind-n-Seq
Form: RNA
Medium: in vitro
Tested at: 365 nM
Notes: natural RNA segment, single round, ends assumed
Relative to: no-protein control
Reading: higher = stronger binding
Quantity: RBNS enrichment (R)
Constant ends, left off below: GGGAGUUCUACAGUCCGACGAUC … UGGAAUUCUCGGGUGCCAA
Residues (chain): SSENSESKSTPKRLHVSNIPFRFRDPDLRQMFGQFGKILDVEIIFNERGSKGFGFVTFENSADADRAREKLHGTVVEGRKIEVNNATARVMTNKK
GGGCUCAUUUUGGUUUUAUUGAAAUGCCAUCUAAAUAUGUUAGCUGUAGAUAGGAGGUGCUUCUGGUGAACUGAAAGUGUCUGACUCGUGAGGAACAUGGUAGGUUCCUC: 0.266
GAACGGGGCCCAGGGGGAGGCAGGAGAGGAGGGUUCCGGUCCCAUGUCACCUUCUCAUUUGCUGUGUGACUUUGGCCCACUCACAUUCUCUUUGGGCCUCAGUUUUAUCA: 0.497
CUUAAGAAGGCUUAAAAGACUGCAUGGUUUAAACCCUAGAAACAUAAAUGGAAUGUUUCUGCCUCAGUUCUUUUGACUACCUCCUAGGACAUGGAAACAAAUAUUUGGGA: 0.602
GCCCUCGGGAGGUGGCCCAUUAUUGCUGGGAUGCGGUGUUGGUAAAGGUUUCCAGGACUGAAACUUUGAUUUUCCGGGAUAUGUUAAAUGGUACAGCCACUAAGUAUCAC: 0.54
AUAAAGAAUAGGCCCCUGCCUGGCUCCUGGGAGAUAACCUCUAAGCCAUUAGAAUAUCUUGCCUGAUAAGAGUGUUUUUGUUUACCUGUGGGCCUUGGGCCAUGCAGUAU: 0.511
GGAGGUCUCCAGUUCACAAGAGCUUCCUGGGAAGGAUAAUAAUCAUGUUUGUAGGAAUCUCAUUCCCAUCGACCUUUACCGAUGGAGAGCCAAUUGUAAUUCUUUUGCCC: 0.42
AGUUGUAAUUUAACAGAAAAACACAAAAUUUCAACCAUUCUUAAUGUUACGUCCUCCCCCCACCCCCUUCUUUCAGUGGUAUGCAACCACUGCAAUCACUGUGCAUAUGU: 0.443
GUUAAAAUUAGAGAUUUCUUUUUAUUUUCCAGUUAUAGUAAUACUAGCUGUCAGCUUAAACCCUCUGUAAUAGAACAUGGAAACAGACACAUAAAGACAUUAGCUGAAAA: 1
ACAUUAUAGUUGUAAAGCUCAAGUUAAAAUAAAAAUAAAAGUGAUAGGACUAAGUCACCUAUCCAAGAAAAAUGUGUUAGUCAUACUUCUUUGACAAAUAUCACAAAUGA: 0.494
AAAACUUUUACAGAUUUUUGCACAAAAAGUGGACAUUUAUUUUUCCUGUUUUUAAAACAGUUUUUCAAGAUAUUAUUGCUUAAUAUGUUCAUUAUUGAUGUUUUUAUAGU: 0.826
UGGAUGAGAGCCAGGGAUGCAUUCUCUCCAAACAGCUACCCUGGCCCAUUUUAAGGUAAUCUCAUUCUUCAAAAUGUUCCAUAGAAUCCUCCAAAUUCCCCCAGCAGACU: 0.433
AAGAAAGGAGGGGGAAAAUCCAGCGUGCCCCAUCUCCUACCCACCCCCUCUUUGUAUUCUCUUUGUAUUUUUCCCCUUCUUAAAAUUUCUUUUUCUGCAAUGAAGACAGA: 0.982

Series 5
Target: Interferon regulatory factor 5, full length, phosphomimetic (IRF5, Homo sapiens, UniProt Q13568-2, residues 1-514, K96S/S451D/S453D/S456D/S462D)
Technique: protein-binding microarray
Form: double-stranded DNA, one strand shown
Medium: in vitro
Tested at: 250 nM
Notes: 60-bp whole probe
With: salmon DNA 0.4 mg/ml
Relative to: random background probes
Reading: higher = stronger binding
Quantity: log fluorescence
Constant ends, left off below: GCCTAGCAC … GTCTTGATTCGCTTGACGCTGCTG
TTAGGTTTCGACTATCGCTTAGTGCTA: 8.25 z-score
GACGGTTCCAGTTTCGGGACGTGCTAG: 5.74 z-score
TCAATTGTCTCTGTCCCACTGTGCTAG: 0.356 z-score
GGCATTTTTTTTATCAATCAGTGCTAG: 0.5 z-score
GACGATCTCAGACTTGAGACGTGCTAG: -0.277 z-score
GACGGTCTCCTTATCCTGAAGTGCTAG: -0.0799 z-score
GGCGATATCGGGTTTCGAGACGTGCTA: 3.4 z-score
TTAGGTATCGGACTGGCTTAGTGCTAG: 1.32 z-score
TTAGGTTTCCTTCTCCGTTAGTGCTAG: 1.1 z-score
GCCGGACTGCTTTTCCTGACGTGCTAG: -0.537 z-score
TCAGTGCTCATGCTTCTTACTGTGCTA: -0.292 z-score
TTCGAACTGAGACTGGATTAGTGCTAG: 0.173 z-score
AGGACCATCTCATATAAATAGGTGCTA: -0.391 z-score
TTAGGTTCCCTGTTCCTTTAGTGCTAG: -0.117 z-score
TTTGGACTGGGACTGGGTTAGTGCTAG: -0.599 z-score
TTAGATATCAGTAGCGATTAGTGCTAG: 1.24 z-score
TGCTGGTTTTGTGGTCTAATGTGCTAG: -0.102 z-score
TTAGATTTCGGTTTCGGTTAGTGCTAG: 11.4 z-score
TTAGTTATCGACTTTCGGTTAGTGCTA: 10.4 z-score

Repeated from above (series 1):
AAGTCGAA: -0.00886
CAAACACA: 0.142
GCCTGCCA: -0.233
GCTTATAC: 0.173
ATCCTAAC: 0.0853
ACAGTCAA: 0.0331
